Measurements collected from several papers.
Protocols differ between the studies behind these lines. ± gives the spread as reported.
Cacna1b: Voltage-dependent N-type calcium channel subunit alpha-1B (Cacna1b, Rattus norvegicus, UniProt Q02294)
UniProt Q02294, sequence (whole entry, looked up): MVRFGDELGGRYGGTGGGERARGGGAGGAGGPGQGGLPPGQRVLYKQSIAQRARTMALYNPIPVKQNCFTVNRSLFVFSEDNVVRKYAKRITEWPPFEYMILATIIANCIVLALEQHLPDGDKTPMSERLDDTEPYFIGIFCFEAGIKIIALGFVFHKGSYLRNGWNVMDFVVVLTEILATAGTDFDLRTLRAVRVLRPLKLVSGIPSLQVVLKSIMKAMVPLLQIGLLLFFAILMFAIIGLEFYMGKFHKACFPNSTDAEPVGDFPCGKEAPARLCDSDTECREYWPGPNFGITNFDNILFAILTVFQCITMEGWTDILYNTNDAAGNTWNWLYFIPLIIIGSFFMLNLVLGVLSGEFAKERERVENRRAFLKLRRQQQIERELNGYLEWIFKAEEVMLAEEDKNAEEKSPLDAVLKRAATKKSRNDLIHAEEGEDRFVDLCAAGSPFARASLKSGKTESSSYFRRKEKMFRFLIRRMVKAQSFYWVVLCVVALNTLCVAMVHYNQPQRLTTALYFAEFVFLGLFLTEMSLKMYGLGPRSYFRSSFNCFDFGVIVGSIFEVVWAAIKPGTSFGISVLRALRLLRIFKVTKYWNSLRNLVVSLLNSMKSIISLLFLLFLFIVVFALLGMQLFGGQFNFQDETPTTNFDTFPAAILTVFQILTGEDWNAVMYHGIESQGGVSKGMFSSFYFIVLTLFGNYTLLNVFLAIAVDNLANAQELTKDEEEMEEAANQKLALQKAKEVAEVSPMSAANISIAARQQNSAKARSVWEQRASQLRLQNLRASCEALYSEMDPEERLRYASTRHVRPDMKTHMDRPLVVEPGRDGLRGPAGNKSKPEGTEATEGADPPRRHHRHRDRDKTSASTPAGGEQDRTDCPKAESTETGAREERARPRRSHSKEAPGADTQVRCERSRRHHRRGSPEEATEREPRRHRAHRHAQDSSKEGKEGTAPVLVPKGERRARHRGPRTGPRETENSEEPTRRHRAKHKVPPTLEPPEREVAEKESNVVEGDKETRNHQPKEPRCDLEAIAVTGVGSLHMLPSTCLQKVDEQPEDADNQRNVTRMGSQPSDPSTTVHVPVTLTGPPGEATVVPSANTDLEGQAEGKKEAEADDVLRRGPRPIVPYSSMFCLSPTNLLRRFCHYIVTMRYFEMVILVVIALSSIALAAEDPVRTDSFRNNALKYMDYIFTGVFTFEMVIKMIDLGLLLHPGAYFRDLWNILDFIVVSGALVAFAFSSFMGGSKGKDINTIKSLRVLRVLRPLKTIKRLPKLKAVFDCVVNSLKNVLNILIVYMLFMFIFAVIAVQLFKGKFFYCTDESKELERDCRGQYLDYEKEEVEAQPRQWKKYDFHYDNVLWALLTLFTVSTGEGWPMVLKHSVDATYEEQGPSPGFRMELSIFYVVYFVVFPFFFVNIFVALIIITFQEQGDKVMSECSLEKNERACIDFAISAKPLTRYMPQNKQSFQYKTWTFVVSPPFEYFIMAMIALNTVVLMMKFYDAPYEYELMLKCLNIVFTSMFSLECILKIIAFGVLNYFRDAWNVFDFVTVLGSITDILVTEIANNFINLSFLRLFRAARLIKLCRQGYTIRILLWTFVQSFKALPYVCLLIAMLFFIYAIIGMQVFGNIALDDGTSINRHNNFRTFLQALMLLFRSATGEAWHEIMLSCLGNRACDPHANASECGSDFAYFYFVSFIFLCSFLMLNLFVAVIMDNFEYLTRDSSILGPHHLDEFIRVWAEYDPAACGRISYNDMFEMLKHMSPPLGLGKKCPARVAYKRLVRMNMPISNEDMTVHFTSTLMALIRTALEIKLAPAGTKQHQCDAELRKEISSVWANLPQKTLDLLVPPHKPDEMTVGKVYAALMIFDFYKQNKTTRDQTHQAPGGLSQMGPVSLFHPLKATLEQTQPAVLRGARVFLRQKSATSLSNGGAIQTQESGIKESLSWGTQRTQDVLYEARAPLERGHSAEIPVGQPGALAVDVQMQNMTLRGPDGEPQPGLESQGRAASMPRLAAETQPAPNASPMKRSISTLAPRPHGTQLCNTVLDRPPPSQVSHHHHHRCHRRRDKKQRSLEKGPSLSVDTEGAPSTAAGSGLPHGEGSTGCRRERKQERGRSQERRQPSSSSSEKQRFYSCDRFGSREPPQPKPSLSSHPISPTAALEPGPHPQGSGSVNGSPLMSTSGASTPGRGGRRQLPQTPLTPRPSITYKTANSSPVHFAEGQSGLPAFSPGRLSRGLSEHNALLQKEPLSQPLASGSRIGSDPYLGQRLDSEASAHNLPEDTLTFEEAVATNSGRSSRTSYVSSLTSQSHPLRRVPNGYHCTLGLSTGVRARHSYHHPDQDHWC
inhA: Enoyl-[acyl-carrier-protein] reductase [NADH] (inhA, Mycobacterium tuberculosis, UniProt P9WGR1)
UniProt P9WGR1, sequence (whole entry, looked up): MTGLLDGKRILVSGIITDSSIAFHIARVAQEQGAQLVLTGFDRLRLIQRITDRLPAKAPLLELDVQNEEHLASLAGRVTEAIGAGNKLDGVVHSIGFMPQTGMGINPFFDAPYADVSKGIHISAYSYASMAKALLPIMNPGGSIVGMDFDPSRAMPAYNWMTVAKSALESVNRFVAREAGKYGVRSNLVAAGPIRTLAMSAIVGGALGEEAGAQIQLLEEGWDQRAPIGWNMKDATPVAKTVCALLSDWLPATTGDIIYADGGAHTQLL
UniProt P07333, sequence (whole entry, looked up): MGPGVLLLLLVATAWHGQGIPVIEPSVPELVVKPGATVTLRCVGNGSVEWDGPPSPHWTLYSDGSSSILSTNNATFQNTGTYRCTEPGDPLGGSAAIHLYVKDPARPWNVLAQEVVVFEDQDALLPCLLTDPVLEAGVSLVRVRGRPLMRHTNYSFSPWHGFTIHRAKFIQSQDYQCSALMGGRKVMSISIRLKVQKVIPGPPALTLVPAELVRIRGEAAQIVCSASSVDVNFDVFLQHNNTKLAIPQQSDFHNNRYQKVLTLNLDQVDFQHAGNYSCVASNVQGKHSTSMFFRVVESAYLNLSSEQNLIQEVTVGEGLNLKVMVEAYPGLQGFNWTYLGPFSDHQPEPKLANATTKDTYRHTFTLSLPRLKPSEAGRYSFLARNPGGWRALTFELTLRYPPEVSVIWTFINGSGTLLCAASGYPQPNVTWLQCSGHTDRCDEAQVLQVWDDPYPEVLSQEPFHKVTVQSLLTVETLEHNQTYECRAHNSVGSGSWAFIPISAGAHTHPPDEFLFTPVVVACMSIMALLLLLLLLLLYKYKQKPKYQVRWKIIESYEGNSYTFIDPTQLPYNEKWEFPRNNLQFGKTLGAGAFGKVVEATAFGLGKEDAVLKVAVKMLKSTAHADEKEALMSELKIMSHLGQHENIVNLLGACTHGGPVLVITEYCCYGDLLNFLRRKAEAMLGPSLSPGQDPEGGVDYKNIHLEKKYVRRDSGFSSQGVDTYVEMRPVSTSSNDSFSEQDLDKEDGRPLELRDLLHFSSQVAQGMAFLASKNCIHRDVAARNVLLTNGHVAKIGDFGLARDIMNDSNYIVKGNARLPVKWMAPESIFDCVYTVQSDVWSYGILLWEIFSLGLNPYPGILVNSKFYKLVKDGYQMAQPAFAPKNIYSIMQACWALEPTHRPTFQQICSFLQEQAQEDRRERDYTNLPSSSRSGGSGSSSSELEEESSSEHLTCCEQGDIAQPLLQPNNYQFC
UniProt P32241, sequence (whole entry, looked up): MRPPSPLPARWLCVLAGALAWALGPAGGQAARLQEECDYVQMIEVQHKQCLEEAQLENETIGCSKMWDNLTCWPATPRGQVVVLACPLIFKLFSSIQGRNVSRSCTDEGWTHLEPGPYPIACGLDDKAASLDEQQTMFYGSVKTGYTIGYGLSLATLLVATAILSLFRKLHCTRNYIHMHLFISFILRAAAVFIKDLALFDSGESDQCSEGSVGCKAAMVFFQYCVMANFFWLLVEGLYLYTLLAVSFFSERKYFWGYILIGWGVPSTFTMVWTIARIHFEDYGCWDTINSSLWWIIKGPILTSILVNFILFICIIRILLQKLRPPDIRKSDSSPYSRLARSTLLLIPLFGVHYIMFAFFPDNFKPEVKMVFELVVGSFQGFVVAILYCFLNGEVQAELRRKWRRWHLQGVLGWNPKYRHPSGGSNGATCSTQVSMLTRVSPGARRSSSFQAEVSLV
UniProt Q8NER1, sequence (whole entry, unmodified, looked up): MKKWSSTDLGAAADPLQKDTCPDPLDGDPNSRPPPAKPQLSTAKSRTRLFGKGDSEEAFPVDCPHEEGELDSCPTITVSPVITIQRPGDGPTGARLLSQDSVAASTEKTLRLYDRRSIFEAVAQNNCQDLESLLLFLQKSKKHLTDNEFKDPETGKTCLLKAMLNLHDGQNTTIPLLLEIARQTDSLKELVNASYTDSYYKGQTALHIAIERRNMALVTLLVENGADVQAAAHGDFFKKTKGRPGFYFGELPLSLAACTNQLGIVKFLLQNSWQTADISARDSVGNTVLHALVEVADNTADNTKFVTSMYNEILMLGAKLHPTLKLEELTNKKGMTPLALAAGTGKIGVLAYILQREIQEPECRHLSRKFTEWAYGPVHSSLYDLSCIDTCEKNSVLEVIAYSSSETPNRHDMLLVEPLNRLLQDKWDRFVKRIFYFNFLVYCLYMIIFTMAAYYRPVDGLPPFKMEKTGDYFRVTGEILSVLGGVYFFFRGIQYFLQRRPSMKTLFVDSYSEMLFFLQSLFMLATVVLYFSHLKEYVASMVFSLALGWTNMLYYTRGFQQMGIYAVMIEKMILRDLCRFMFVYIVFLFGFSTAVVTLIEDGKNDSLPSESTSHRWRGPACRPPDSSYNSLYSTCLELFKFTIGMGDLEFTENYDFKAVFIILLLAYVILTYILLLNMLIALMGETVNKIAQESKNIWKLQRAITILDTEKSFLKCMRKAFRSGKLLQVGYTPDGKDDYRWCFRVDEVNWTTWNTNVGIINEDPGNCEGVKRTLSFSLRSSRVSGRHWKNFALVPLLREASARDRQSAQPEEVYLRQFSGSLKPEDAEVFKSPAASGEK

Compound	tested on	assay	system	setting	measurement	value
CC(C)c1nc2cc(O)ccc2c(=O)n1-c1ccc(C#N)cc1	TRPV1 (Homo sapiens, UniProt Q8NER1, I573A)	ion current, inhibitor, whole-cell patch clamp	–	concentration not given, pH 5, mutant I573A	inhibition	decreased
C[Si](C)(C)C[C@@H](CN)CC(=O)O	Cacna1b	cell-free assay, inhibitor	–	75 µM	inhibition	-19%
Oc1cc(CNc2ccccc2)ccc1Oc1ccc(Cl)cc1Cl	inhA	enzyme activity, inhibitor	–	concentration not given	inhibition	99 ± 0.28%
Cc1sc2c(c1C)C(c1ccc(Cl)cc1)=NC(CC(=O)OC(C)(C)C)c1nnc(C)n1-2 (stereo not drawn)	VIPR1 (Homo sapiens, UniProt P32241)	ligand displacement, radioligand	–	1 µM	inhibition	-9%
CN[C@@H]1[C@H](O)[C@H](NC)[C@H]2O[C@]3(O)[C@H](O[C@@H]2[C@H]1O)O[C@H](C)C[C@H]3NC(=O)Cc1ccc(Cl)cn1	Cacna1b	cell-free assay	–	10 µM	inhibition	27%
CN(C)[C@H]1C[C@@]23CC[C@@]4(O2)C(=CC[C@]2(C)[C@@H](c5ccc6ccncc6c5)CC[C@H]24)C=C3[C@@H](O)[C@@H]1O	MARK3 (Homo sapiens, UniProt P27448)	ATP probe labelling, inhibitor, KiNativ profiling	–	1 µM	inhibition	1%
CC(C)[C@H]1NC(=O)C[C@H]2/C=C/CCSSC[C@@H](NC1=O)C(=O)N[C@H](Cc1cccc3ccccc13)C(=O)NCC(=O)O2	RET (Homo sapiens, UniProt P07949, M918T)	enzyme activity, inhibitor	–	10 µM	inhibition	3.2%
CN[C@@H]1[C@H](O)[C@H](NC)[C@H]2O[C@]3(O)[C@H](O[C@@H]2[C@H]1O)O[C@H](C)C[C@H]3NC(=O)Cc1cc(Cl)ccn1	ATP-binding cassette sub-family C member 8 (ABCC8, Cricetus cricetus, UniProt Q09427)	–	–	10 µM	inhibition	12%
CS(C)(=O)=Nc1ccc(-c2ccc(-c3nc4cc(O[C@@H]5CO[C@H]6[C@@H]5OC[C@H]6O)[nH]c4cc3F)cc2)cc1	CSF1R (Homo sapiens, UniProt P07333)	enzyme activity, inhibitor	–	10 µM	inhibition	6%
Oc1cc(Cn2ccnn2)ccc1Oc1ccc(Cl)cc1Cl	inhA	enzyme activity, inhibitor	–	concentration not given	inhibition	97 ± 0.14%
O=C1NC2(CC2)COc2ncc(F)cc2[C@H]2COCCN2c2ccn3ncc1c3n2	–	–	Sprague-Dawley rat, male, heart	oral, 20 mg/kg/day, 4 weeks dosing, end of recovery	organ-to-brain weight ratio	77.9 ± 9.34%
CCN(CC)C(=O)[C@@H]1C=C2c3cccc4c3c(cn4C(=O)c3ccco3)C[C@H]2N(C)C1	ADRA1D (Homo sapiens, UniProt P25100)	radioligand binding	–	10 µM	inhibition	< 50%

Repeated from above:
Compound	tested on	assay	system	setting	measurement	value
CN[C@@H]1[C@H](O)[C@H](NC)[C@H]2O[C@]3(O)[C@H](O[C@@H]2[C@H]1O)O[C@H](C)C[C@H]3NC(=O)Cc1ccc(Cl)cn1	Cacna1b	cell-free assay	–	10 µM	inhibition	27%
